Published values pooled from the literature.
Lines come from different studies, so protocols differ. Numbers after ± are the reported error. Bridges are numbered along the chain shown (N, C = ends).
B1: disulfide; chain MRGSHHHHHHGSNEKGETSEKTIVRANGTRLEYTDIKSDGIEGRVDGGGGSDDDDKMACGYSSFNRCGGGS (disulfide 59-67 (inferred))

Substance	organism	test	test system	conditions	EC50
B1	Borrelia garinii	cyst to spirochete conversion, flow cytometry	SKT-7.1	16 h	830 nM
Cn1cnc(S(=O)(=O)N2CCCCN3[C@H](CO)[C@@H](c4ccc(-c5ccc(F)cc5)cc4)[C@@H]3C2)c1	Respiratory syncytial virus	cytopathic effect	A2		6100 nM
C[C@H](Cn1cnc2c(N)ncnc21)OCP(=O)(O)O	hepatitis B virus	viral replication	HepG2.2.15		2400 ± 200 nM
Cc1ccc(S(=O)(=O)N2C(=O)CSC2c2cccc([N+](=O)[O-])c2)cc1 (stereo not shown)	herpes simplex virus 2	viral cytopathicity	HEL, G		> 100000 nM
COc1ccc(CC(CC(=O)O)C(=O)O)cc1OC (stereo not shown)	hepatitis C virus	viral RNA replication	Huh-7 with HCV replicon, genotype 2a	48 h	75000 nM
CSc1ccccc1C(=O)Oc1cc(C)nc(-n2nc(C)cc2N)n1	Leishmania amazonensis	alamarBlue	axenic amastigotes	72 h	> 5000 nM
CC(C)[C@]12O[C@H]1[C@@H]1O[C@]13[C@]1(O[C@H]1C[C@H]1C4=C(CC[C@@]13C)C(=O)OC4)[C@@H]2O	human respiratory syncytial virus	viral replication	BEAS-2B		400 nM
Cc1ccc(S(=O)(=O)N2C(=O)CSC2c2ccc([N+](=O)[O-])cc2)cc1 (stereo not shown)	herpes simplex virus 2	viral cytopathicity	HEL, G		> 100000 nM
Cc1cc(NS(=O)(=O)c2ccc(N)cc2)no1	Human gammaherpesvirus 8	latent viral DNA	BC-3		12 ± 4 µg/mL
CN[C@@H]1[C@H](O[C@@H]2OC[C@@H](O)[C@H](O)[C@H]2O)[C@@H](O)[C@H](O[C@H]2c3cc(C)c(C(=O)N[C@H](C)C(=O)O)c(O)c3-c3c(cc4c(c3O)C(=O)c3cc(OC)cc(O)c3C4=O)[C@@H]2O)O[C@@H]1C	feline coronavirus	viral cytopathicity, MTT	FCWF, FIPV 79-1146, serotype II	48 h	> 120000 nM
CC1CS(=O)(=O)CCN1/N=C/c1ccc([N+](=O)[O-])o1 (stereo not shown)	Trypanosoma brucei brucei	parasite viability	bloodstream form 427	72 h	2400 ± 100 nM
COc1cc([C@@H]2c3cc4c(cc3C[C@H]3COC(=O)[C@@H]32)OCO4)cc(OC)c1OC	Leishmania infantum	intracellular amastigote growth, iRFP fluorescence	infected mouse splenocyte explants	48 h	> 100000 nM
CC(=O)N(CCc1ccc(-c2ccccc2)cc1)CCc1cn(C)c2ccccc12	Human alphaherpesvirus 3	viral plaque formation, plaque reduction	HEL, TK-deficient 07-1		1700 nM
CC1(C)N=C(N)N=C(N)N1c1ccc(Cl)c(Cl)c1	human respiratory syncytial virus	cytopathic effect, microscopy	HeLa, Long		~8 nM
Cc1ccc(S(=O)(=O)N2C(=O)CSC2c2ccccc2O)cc1 (stereo not shown)	HIV-2	viral cytopathicity, MTT	MT-4, ROD		> 125000 nM
NC(=O)c1ncn([C@@H]2O[C@H](CO)[C@@H](O)[C@H]2O)n1	Coxsackievirus B4	cytopathic effect	HeLa		112000 nM
Nc1ccn([C@@H]2CS[C@H](CO)O2)c(=O)n1	hepatitis B virus	viral replication	HepG2.2.15		60 ± 7 nM
CCOC(=O)NC(=O)c1ccsc1NC(=O)c1nc2ccccc2s1	Leishmania amazonensis	alamarBlue	axenic amastigotes	72 h	520 ± 120 nM
COc1ccc([C@@]23Oc4cc(OC)cc(OC)c4[C@]2(O)c2nc(-c4cccc(OC)c4)[nH]c(=O)c2[C@H]3c2ccccc2)cc1	hepatitis C virus	viral infection, luciferase reporter HCVcc	Huh-7.5.1	racemate	~500 nM
Cc1ccc(S(=O)(=O)N2C(=O)CSC2c2ccccc2[N+](=O)[O-])cc1 (stereo not shown)	HIV-2	viral cytopathicity, MTT	MT-4, ROD		> 125000 nM
NC(=O)CCNC(=O)c1ccccc1S	HIV-1	viral replication	human monocytes/macrophages, subtype B ADA, CCR5-tropic		15700 nM
Cc1c(C(=O)C(=O)NCc2cn(CCCCCCCCCCCCCCn3cc(CNC(=O)C(=O)c4c(C)c(C(=O)Nc5ccc(F)c(F)c5)n(C)c4C)nn3)nn2)c(C)n(C)c1C(=O)Nc1ccc(F)c(F)c1	hepatitis B virus	viral replication, immunofluorescence, refers to: HBcAg	HBV-infected HepG2-NTCP cells	7 days post-infection, dosed from 24 h pre-infection	67 ± 53 nM

Substance	organism	test	test system	conditions	EC50
CCc1c(C)nc(-n2nc(C)cc2NC(=O)c2ccc(F)c(Cl)c2)[nH]c1=O	Leishmania amazonensis	alamarBlue	axenic amastigotes	72 h	20 ± 0.9 nM
CC(=Nc1ccccc1N)c1c(C)cc(=O)n(O)c1O	hepatitis B virus	viral replication, strand-preferential qPCR, refers to: plus-strand DNA	HepDES19, genotype D	3 days	690 ± 200 nM
Nc1ccc(S(=O)(=O)Nc2nccs2)cc1	Human gammaherpesvirus 8	latent viral DNA	BC-3		6 ± 2 µg/mL
COC(=O)N[C@H](C(=O)N1CCC[C@H]1c1ncc(-c2ccc(-c3ccc(-c4cnc([C@@H]5CCCN5C(=O)[C@@H](NC(=O)OC)C(C)C)[nH]4)cc3)cc2)[nH]1)C(C)C	hepatitis C virus	viral replication, transient replicon	genotype 1b replicon wild type		0.0026 ± 0.00033 nM
C[C@H]1CN(c2n[nH]c3nc(N[C@H]4CC[C@H](NS(=O)(=O)CCC(F)(F)F)CC4)ncc23)CCO1	Leishmania donovani	parasite growth	mouse	intracellular, amastigote	1260 nM
COC(=O)[C@@H]1C(C=O)=Cc2cc3c(cc2[C@H]1c1cc(OC)c(OC)c(OC)c1)OCO3	Leishmania infantum	parasite growth	mouse Splenocyte	48 h, intracellular, amastigote	9300 nM
Cc1ccc(S(=O)(=O)N2C(=O)CSC2c2ccc(O)cc2)cc1 (stereo not shown)	herpes simplex virus 2	viral cytopathicity	HEL, G		> 100000 nM
Nc1ncnc2c1ncn2C[C@H](O)CO	human respiratory syncytial virus	cytopathic effect	HeLa		> 250000 nM
CC[C@H]1/C=C/C=C/C[C@@H](C)[C@H](O)[C@@](C)(O)C(=O)[C@@H](C)[C@H](O)[C@@H](C)C(=O)[C@@H](C)[C@H](O)[C@@H](C)/C=C/C(=O)O[C@@H]2[C@H](C)[C@H](CC1)O[C@]1(CC[C@H](C)[C@H](C[C@@H](C)O)O1)[C@H]2C	Feline infectious peritonitis virus	viral replication, visual scoring		48 h	17800 ± 480 nM
O=c1[nH]c(=O)c2ncn(C[C@H](CF)OCP(=O)(O)O)c2[nH]1	Human alphaherpesvirus 3	plaque formation, inhibitor	HEL		> 313000 nM
Cc1ccc(S(=O)(=O)N2C(=O)CSC2c2ccccc2F)cc1 (stereo not shown)	herpes simplex virus 2	viral cytopathicity	HEL, G		> 100000 nM
CCOP(=O)(OCC)[C@H]1C[C@@H](Cn2c(=O)n(C(=O)c3ccccc3)c(=O)c3ccccc32)ON1C	human alphaherpesvirus 3	viral replication, plaque reduction	HEL, Oka TK+		6900 to 7500 nM
Nc1nc(N)c2nc(CNc3ccc(C(=O)N[C@@H](CCC(=O)O)C(=O)O)cc3)cnc2n1	human respiratory syncytial virus	viral replication	BEAS-2B		70 nM
Cc1ccc(NC(=O)C(C)Sc2nc3ccccc3n2Cc2ccccc2)c(Cl)c1 (stereo not shown)	Measles morbillivirus	viral replication	Alaska		500 nM
O=C(Cc1csc2nc(-c3ccc(Br)cc3)cn12)NN=C1CCC(c2ccccc2)CC1 (stereo not shown)	feline coronavirus	viral cytopathic effect	CRFK		> 100 µg/mL
CC(=CC(=O)NCCCCNc1cc(C(F)(F)F)nc2c(C(F)(F)F)cccc12)C(=O)NCCCCNc1cc(C(F)(F)F)nc2c(C(F)(F)F)cccc12	Coxsackievirus B4	viral cytopathic effect, visual CPE scoring	HEp-2		3150 nM
C/C(O)=C(\C#N)C(=O)Nc1ccc(C(F)(F)F)cc1	human coronavirus OC43	viral RNA, qPCR	Huh-7	7 d	67200 nM
Cc1ccc(S(=O)(=O)N2C(=O)CSC2c2ccccc2)cc1 (stereo not shown)	HIV-2	viral cytopathicity, MTT	MT-4, ROD		> 125000 nM
CNC(=O)c1ccc(-c2cnn3ccc(C(=O)N(C)c4ccc(Cl)c(C(=O)OC)c4)cc23)cc1	Cryptosporidium parvum	cytopathic effect	HCT-8	48 h	52 ± 13 nM
Cc1ccc(S(=O)(=O)N2C(=O)CSC2c2ccc(Cl)cc2)cc1 (stereo not shown)	herpes simplex virus 2	viral cytopathicity	HEL, G		> 100000 nM
C[C@H](Cn1cnc2c(N)ncnc21)OCP(=O)(O)O	human alphaherpesvirus 2	viral replication	human keratinocytes		193 ± 17 µg/mL

Repeated from above:
Substance	organism	test	test system	conditions	EC50
C[C@H]1CN(c2n[nH]c3nc(N[C@H]4CC[C@H](NS(=O)(=O)CCC(F)(F)F)CC4)ncc23)CCO1	Leishmania donovani	parasite growth	mouse	intracellular, amastigote	1260 nM
Nc1ncnc2c1ncn2C[C@H](O)CO	human respiratory syncytial virus	cytopathic effect	HeLa		> 250000 nM
NC(=O)CCNC(=O)c1ccccc1S	HIV-1	viral replication	human monocytes/macrophages, subtype B ADA, CCR5-tropic		15700 nM
Cc1ccc(S(=O)(=O)N2C(=O)CSC2c2ccc([N+](=O)[O-])cc2)cc1 (stereo not shown)	herpes simplex virus 2	viral cytopathicity	HEL, G		> 100000 nM
CN[C@@H]1[C@H](O[C@@H]2OC[C@@H](O)[C@H](O)[C@H]2O)[C@@H](O)[C@H](O[C@H]2c3cc(C)c(C(=O)N[C@H](C)C(=O)O)c(O)c3-c3c(cc4c(c3O)C(=O)c3cc(OC)cc(O)c3C4=O)[C@@H]2O)O[C@@H]1C	feline coronavirus	viral cytopathicity, MTT	FCWF, FIPV 79-1146, serotype II	48 h	> 120000 nM
CC1(C)N=C(N)N=C(N)N1c1ccc(Cl)c(Cl)c1	human respiratory syncytial virus	cytopathic effect, microscopy	HeLa, Long		~8 nM
